# Experimental data collected from several papers.
# Every numbered part comes from another study and shows a few of its results, in no order. Substitutions count along the parent as printed.

# Series 1
# Target: Hepatocyte nuclear factor 3-beta, forkhead domain (FOXA2, Homo sapiens, UniProt Q9Y261, residues 142-269)
# Method: protein-binding microarray
# Form: double-stranded DNA, one strand shown
# Matrix: in vitro
# Tested at: not given
# Setting: k-mer, scored over probes, only values ≥0.25
# Reading: higher = stronger binding
# Construct (chain): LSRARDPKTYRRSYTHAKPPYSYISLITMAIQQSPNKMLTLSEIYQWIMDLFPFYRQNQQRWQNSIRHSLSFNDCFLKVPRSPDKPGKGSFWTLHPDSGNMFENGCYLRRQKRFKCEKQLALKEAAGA
Oligonucleotide,E-score
ATATCAAC,0.296
AATTATGT,0.321
ACATAAAT,0.323
CATGTTGA,0.331
CACTATAG,0.266
TATGTAAA,0.302
ATACAAAT,0.355
AATAGTAT,0.289
AAAGTGTA,0.358
ATTGTATG,0.283
GTGTTTGA,0.353
AACATATG,0.341
ATTCGATA,0.291
CGGATATA,0.285
ATTCCACA,0.294
CTGTATCC,0.273
GTTGGTAA,0.258

# Series 2
# Target: Ras GTPase-activating protein-binding protein 1, full length (G3BP1, Homo sapiens, UniProt Q13283)
# UniProt Q13283, sequence (whole entry, looked up): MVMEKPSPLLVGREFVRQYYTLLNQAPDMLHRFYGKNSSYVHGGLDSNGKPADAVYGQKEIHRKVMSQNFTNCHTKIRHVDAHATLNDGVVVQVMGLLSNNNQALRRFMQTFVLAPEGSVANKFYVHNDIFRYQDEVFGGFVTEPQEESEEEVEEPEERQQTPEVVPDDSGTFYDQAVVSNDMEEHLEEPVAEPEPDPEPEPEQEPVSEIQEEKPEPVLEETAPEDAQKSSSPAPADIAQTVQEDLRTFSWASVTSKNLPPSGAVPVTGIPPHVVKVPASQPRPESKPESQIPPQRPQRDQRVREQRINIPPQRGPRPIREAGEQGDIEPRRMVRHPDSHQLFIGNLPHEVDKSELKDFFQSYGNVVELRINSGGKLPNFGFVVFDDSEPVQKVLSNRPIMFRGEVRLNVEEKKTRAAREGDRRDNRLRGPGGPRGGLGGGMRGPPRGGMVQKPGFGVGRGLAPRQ
# Method: RNA Bind-n-Seq
# Form: RNA
# Matrix: in vitro
# Tested at: 200 nM
# Setting: whole 134-nt RNA, ends assumed
# Together with: 150 mM KCl
# Relative to: input library
# Reading: higher = stronger binding
# Shared flanks, not repeated: GGGAGUUCUACAGUCCGACGAUC … UGGAAUUCUCGGGUGUCAAGG
Oligonucleotide,log2 enrichment
GUCCUGUGCUACACAUCGUAUGUACCGAAUCGGUUUUUUUGGAAAAAAAGGUUUUUGGAAAGUAUUAUGUUACGCCGUUCGGAUCUGCAC,-1.37
GUCCUGUGCUACACAUCGUAUGUACCGAAUCGGGUUUUUGGGUUUGGGAAAAAAAGGGAAAGUAUUAUGUUACGCCGUUCGGAUCUGCAC,-0.72
UAACUUUAGAGGAGGAUCUGAUGGAUAUGGCAGUGGACGUGGAUUUGGGGAUGGCUAUGAUGGGUAUGGAGGAGGACCUGGAGGUGGCAA,0.429
UGGCCCUGGUGGCAUGCGGGGAGGAAGAGGUGGCCUCAUGGAUCGUGGUGGUCCCGGUGGAAUGUUCAGAGGUGCCCGUGGUGGAGACAG,0.368
CCUCAAGUCCUGUGCUACACAUCGUAUGUACCGAAUCGGGCCGGCCGGGCCGGAAAGUAUUAUGUUACGCCGUUCGGAUCUGCACUUCCA,-0.217
ACCAUGCAGGUGGGCAUCUUUGGGAAGAGGGGCAAGGGGGGGAUAGGGAGGGGGGUAACACUUUGGGAACAGGUGGUCCCAGGUCGUUUC,1.59
CUCAAGUCCUGUGCUACACAUCGUAUGUACCGAAUCGGGUGGGUGGGAAAGGGAAAGUAUUAUGUUACGCCGUUCGGAUCUGCACUUCCA,1.09
CUCAAGUCCUGUGCUACACAUCGUAUGUACCGAAUCGGGUUGGGUUGGGGUUGGAAAGUAUUAUGUUACGCCGUUCGGAUCUGCACUUCC,0.263
UGGCCCUGGUGGCAUGCGGGGAGGAAGAGGUGGCCUCAUGGAUCGUGGUGGUCCCGGUGGAAUUUUCAGAGGUGGCCGUGGUGGAGACAG,0.312
CCUCAAGUCCUGUGCUACACAUCGUAUGUACCGAAUCGGGCGGGGCGGGCGGGAAAGUAUUAUGUUACGCCGUUCGGAUCUGCACUUCCA,1.71

# Series 3
# Target: Sal-like protein 4, full length isoform A (SALL4, Homo sapiens, UniProt Q9UJQ4, residues 1-1053)
# UniProt Q9UJQ4, sequence (whole entry, looked up): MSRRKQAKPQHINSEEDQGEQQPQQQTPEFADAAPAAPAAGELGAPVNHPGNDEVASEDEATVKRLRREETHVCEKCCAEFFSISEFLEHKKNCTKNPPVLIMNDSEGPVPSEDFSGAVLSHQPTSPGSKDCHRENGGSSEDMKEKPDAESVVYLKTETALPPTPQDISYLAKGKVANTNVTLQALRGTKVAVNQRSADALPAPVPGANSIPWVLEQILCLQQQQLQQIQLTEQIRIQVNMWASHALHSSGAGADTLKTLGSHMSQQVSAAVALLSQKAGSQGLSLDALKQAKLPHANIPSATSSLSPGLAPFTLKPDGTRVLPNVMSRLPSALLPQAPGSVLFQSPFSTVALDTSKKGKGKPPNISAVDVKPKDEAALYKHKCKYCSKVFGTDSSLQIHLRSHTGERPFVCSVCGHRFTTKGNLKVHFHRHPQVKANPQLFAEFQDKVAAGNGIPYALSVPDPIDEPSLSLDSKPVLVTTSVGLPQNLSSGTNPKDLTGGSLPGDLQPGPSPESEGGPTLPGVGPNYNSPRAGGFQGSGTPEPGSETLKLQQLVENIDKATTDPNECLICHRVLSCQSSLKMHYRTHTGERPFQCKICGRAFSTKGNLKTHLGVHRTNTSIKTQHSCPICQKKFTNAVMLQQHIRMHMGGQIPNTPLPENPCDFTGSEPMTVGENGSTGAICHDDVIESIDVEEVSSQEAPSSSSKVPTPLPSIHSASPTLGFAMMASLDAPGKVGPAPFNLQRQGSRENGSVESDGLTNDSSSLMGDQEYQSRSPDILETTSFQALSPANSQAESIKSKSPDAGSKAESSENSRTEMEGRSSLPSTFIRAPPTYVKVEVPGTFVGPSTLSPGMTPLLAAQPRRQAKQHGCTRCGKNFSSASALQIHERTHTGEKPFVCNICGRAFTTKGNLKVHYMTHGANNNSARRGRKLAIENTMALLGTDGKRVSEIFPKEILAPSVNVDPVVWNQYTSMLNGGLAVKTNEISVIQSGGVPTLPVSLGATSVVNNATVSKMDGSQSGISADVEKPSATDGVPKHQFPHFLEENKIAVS
# Method: universal PBM
# Form: double-stranded DNA, one strand shown
# Matrix: in vitro
# Tested at: 600 nM
# Setting: 8-mer, flanks averaged, mean of replicates
# Reading: higher = stronger binding
Oligonucleotide,E-score
AAGGGAGC,-0.289
CATCCCAC,-0.162
AACTGTAG,0.0256
GATTCTGC,-0.0714
GATGGCAC,-0.29
CCCTATTA,0.203
CATTACTC,0.00739
CTAATCTA,0.161
GTCGCAAC,-0.0814
AAAACACA,0.165
CATGTAGA,0.16
AATGTGCG,0.0782
AACCTAAA,0.195
AGTCAGTA,0.0864
ACGTCAAG,-0.022
CTGACGGA,0.00928
ATCTCGTC,-0.161
TCTTCGCA,0.0595
AACCGGTT,-0.143
AAAAGAGC,0.0485
ACGGGGGA,-0.157
CGGTTTCC,-0.25
GTACACGA,-0.00211
AACCCCTT,-0.123

# Series 4
# Target: RNA binding protein fox-1 homolog 2, RRM domain, GST-SBP tag (RBFOX2, Homo sapiens, UniProt O43251-10, residues 100-194)
# Method: RNA Bind-n-Seq
# Form: RNA
# Matrix: in vitro
# Tested at: 365 nM
# Setting: natural RNA segment, single round, ends assumed
# Relative to: no-protein control
# Reading: higher = stronger binding
# Shared flanks, not repeated: GGGAGUUCUACAGUCCGACGAUC … UGGAAUUCUCGGGUGCCAA
# Target sequence (chain): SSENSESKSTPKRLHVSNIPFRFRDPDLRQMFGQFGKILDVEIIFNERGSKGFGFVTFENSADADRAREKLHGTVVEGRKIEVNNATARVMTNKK
Oligonucleotide,RBNS enrichment (R)
CCUUGUAAAUACCCGCUGCUGCGGUGGCCCUGAGCGAGGAACAAGCCAUUCGGACCCGACCGAUGUAAAUACAGCCGCCCGUCCGCCCGCCUUCCUCCCGGGCUCCCCGG,0.264
CUGUUGUAUAUCAGACUUAAUUUUGUCAGCUGAUAGUAUAUAGUGACUGAUGAGUCAGUCACAGUUCCACUGACUCCCAGUUACUGUUCUGAUUAGUGGUAGUUAUUUGC,0.46
UGAUAGUUUUGAAUGUUGCUUAAAUGUCUAUGAGGUUGCGAGUUUGUCAUUGUUACAUUCCAGUGUUUCUGCCUCUUGGCAUGCUUAAAGCACGGCUUACUUCAUCUGCU,0.997
UGUCUGGUGGGGACGCAGUGGCCCUGGACACGGCUCCCCUCUGCAGGUCUGCAGGUCGGUUUGCUGCCUGCCCUCCUCCUCUCACCCGAUGUCCAGGUGGGAUUUUAAAG,0.362
CCUCUUGGUUAGAGGAGUGAGUUUCUUUUUUUUCCAUUAACUUGUUUCCUGAUCGAGAAACACGUGCUAAGAUUUCUAUGAAUUCUGCUUCUUUAUAGUUAAGUCUCUGU,0.697
AGGAAAAGCUACAUACCGAAGGGCUUUUGUAUAUGAAUUCUGUGGUGGGGAGACCCAUUUGUAAUCUAUAUGGCAGUUCCAUCUGGGUUUUAAGUUUAGAUUUCACCGUG,0.387
AGCGCUGAGGGCCAGGGUCUUGUGCUGUGGGGCUGGGGGAUGCCCUCUUUUCUAUAUUUAUUUCAUAGAAAGUCUCCUGCGGGAGCGGAAAUGCAGUCCGGCCUAGGGCU,0.869
GGCAAAGUGCAGUGCGUGUUUGUGGUCAAGAUGAGGGUGUUAAGGGAUGUUGGAGUCUGGUGUAGAGACAGGCAGGUUGCAGAAAAGCACAGAUCUUUGCCAGUGGUUGG,1.8
GGAAAUAUUCUCUAUGGUAAUCCUUGCCAGAGGGUCUCCAAAGGAAGCUAACCGCUGGCCCCGAAUCACGCAGCCCGUCCUUAAACGGCCUCGCCAUGUGCAUUGCCACC,0.185
AGGGCUGAGGACCCCUCCAGGCCCCUCUCUCCUGGAAGUGCUGCAUAUGCCCCUGUGCCCAGUGGUUGAUGAUACCACCACCACCUGCCUACCCAUGGGCCCAAGUUUCU,0.637
GUUUUUAUGCCUUUGGCUAUUAUGAAAGAGGUUAGUGUGUUCCCUGCAAUAAACUUGUUCCUGAGAACUGUCCUCAUAGCGGGAGGGGUAUGCAGGGAAAACCCCGCCUA,0.581
UGAAGUAGAAGUAGAUUGUUGGAUUGCAAAGAAAAUGAUAAAGAUUCCCUAAAGGAAUUUAUAAGCAGGCAACUUCAUUCCUAUGUAUAAGAUAUUGGGAGAAAACAAAC,0.57

# Series 5
# Target: CCND3, cyclin fold, Cln2 fusion (human)
# Method: yeast growth competition, sequencing
# Matrix: yeast
# Setting: weak parent motif
# Relative to: not given
# Reading: higher = stronger binding
# Starting sequence: DBF4 docking peptide (human); DDIVSKLVFDFVE
Variant,normalised enrichment score
DDIVSKLVFDAVE [F11A],-0.334
DAIVSKLVFDFVE [D2A],-0.158
DDIVSKLVFDFAE [V12A],-0.593
DDIVSKLVADFVE [F9A],-0.246
DDAVSKLVFDFVE [I3A],-0.301
DDIVAKLVFDFVE [S5A],-0.414

# Single results of other studies
Substance,target,assay,system,setting,scale,quantity,value
"PhoQ, residues 284 288 289 292 302 303 ASASEQ","PhoP, residues 12 14 15 18 19 GHCSL (Escherichia coli, UniProt P23836)","Sort-seq, measured: YFP reporter",E. coli,"PhoQ-PhoP variant library, together with: 10 µM Mg2+","relative to: high Mg2+ state, higher = stronger signaling",fold induction,11.9

# Excerpt of the above (series 4):
Oligonucleotide,RBNS enrichment (R)
GGAAAUAUUCUCUAUGGUAAUCCUUGCCAGAGGGUCUCCAAAGGAAGCUAACCGCUGGCCCCGAAUCACGCAGCCCGUCCUUAAACGGCCUCGCCAUGUGCAUUGCCACC,0.185
UGAAGUAGAAGUAGAUUGUUGGAUUGCAAAGAAAAUGAUAAAGAUUCCCUAAAGGAAUUUAUAAGCAGGCAACUUCAUUCCUAUGUAUAAGAUAUUGGGAGAAAACAAAC,0.57
UGUCUGGUGGGGACGCAGUGGCCCUGGACACGGCUCCCCUCUGCAGGUCUGCAGGUCGGUUUGCUGCCUGCCCUCCUCCUCUCACCCGAUGUCCAGGUGGGAUUUUAAAG,0.362
AGCGCUGAGGGCCAGGGUCUUGUGCUGUGGGGCUGGGGGAUGCCCUCUUUUCUAUAUUUAUUUCAUAGAAAGUCUCCUGCGGGAGCGGAAAUGCAGUCCGGCCUAGGGCU,0.869
CCUUGUAAAUACCCGCUGCUGCGGUGGCCCUGAGCGAGGAACAAGCCAUUCGGACCCGACCGAUGUAAAUACAGCCGCCCGUCCGCCCGCCUUCCUCCCGGGCUCCCCGG,0.264
